Measured values gathered from unrelated publications.
Protocols differ between the studies behind these lines. ± marks the error that the study gave.
Sequence of UniProt P51582 (whole entry, looked up): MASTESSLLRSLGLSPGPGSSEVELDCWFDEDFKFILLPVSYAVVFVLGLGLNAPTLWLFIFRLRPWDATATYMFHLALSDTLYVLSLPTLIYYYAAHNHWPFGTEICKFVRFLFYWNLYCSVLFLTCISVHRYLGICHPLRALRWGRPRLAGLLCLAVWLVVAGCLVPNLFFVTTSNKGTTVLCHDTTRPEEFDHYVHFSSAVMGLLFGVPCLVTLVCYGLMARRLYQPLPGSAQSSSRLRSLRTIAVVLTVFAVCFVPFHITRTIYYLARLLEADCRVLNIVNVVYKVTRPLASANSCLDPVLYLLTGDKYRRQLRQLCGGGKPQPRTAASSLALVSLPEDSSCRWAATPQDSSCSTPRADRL
Sequence of UniProt P19484 (whole entry, looked up): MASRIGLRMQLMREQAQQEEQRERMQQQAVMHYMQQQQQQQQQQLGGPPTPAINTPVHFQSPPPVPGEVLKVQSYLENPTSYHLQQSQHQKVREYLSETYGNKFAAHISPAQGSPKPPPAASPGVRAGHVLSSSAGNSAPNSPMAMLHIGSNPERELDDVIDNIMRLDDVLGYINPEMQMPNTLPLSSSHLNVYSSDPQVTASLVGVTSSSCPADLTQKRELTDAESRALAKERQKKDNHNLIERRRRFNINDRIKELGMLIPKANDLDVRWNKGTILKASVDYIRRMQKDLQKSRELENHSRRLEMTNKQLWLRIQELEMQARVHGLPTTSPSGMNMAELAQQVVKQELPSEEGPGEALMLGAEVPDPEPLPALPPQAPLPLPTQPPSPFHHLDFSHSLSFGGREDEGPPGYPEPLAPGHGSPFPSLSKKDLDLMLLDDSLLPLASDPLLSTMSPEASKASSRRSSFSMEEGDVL
Sequence of UniProt P02730 (whole entry, looked up): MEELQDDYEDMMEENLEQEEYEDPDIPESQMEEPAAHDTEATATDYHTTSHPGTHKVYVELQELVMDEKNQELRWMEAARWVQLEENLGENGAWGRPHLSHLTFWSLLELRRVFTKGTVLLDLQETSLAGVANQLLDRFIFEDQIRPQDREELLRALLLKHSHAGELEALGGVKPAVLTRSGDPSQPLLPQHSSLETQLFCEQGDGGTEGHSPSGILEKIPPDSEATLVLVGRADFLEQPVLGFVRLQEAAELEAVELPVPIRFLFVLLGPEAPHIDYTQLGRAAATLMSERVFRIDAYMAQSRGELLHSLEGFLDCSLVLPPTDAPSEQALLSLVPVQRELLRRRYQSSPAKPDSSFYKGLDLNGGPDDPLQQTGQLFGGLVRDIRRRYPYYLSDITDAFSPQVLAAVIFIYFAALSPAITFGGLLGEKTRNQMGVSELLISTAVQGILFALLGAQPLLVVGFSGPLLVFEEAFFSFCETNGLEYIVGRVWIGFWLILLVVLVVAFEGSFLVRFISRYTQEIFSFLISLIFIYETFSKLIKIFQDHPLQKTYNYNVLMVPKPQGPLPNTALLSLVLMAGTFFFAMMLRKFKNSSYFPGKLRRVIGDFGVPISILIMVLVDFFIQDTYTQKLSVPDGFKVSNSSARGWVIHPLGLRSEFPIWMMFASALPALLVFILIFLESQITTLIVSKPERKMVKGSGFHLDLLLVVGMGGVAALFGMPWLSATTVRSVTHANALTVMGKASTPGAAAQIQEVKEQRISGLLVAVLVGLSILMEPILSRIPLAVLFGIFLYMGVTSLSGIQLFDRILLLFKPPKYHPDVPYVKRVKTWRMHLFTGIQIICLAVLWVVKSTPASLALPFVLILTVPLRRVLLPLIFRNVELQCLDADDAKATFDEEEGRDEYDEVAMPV
Sequence of UniProt Q8BZP8 (whole entry, looked up): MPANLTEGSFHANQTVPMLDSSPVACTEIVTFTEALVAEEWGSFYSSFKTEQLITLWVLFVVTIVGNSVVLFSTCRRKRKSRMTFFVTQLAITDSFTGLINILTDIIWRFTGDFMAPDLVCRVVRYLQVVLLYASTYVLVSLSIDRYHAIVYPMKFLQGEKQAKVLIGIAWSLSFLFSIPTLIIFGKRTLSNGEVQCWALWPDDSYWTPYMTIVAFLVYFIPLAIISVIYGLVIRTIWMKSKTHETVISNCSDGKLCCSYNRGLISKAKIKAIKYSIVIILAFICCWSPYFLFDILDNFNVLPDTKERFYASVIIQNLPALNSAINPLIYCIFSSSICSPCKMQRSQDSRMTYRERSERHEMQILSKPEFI
Sequence of UniProt P34972 (whole entry, unmodified, looked up): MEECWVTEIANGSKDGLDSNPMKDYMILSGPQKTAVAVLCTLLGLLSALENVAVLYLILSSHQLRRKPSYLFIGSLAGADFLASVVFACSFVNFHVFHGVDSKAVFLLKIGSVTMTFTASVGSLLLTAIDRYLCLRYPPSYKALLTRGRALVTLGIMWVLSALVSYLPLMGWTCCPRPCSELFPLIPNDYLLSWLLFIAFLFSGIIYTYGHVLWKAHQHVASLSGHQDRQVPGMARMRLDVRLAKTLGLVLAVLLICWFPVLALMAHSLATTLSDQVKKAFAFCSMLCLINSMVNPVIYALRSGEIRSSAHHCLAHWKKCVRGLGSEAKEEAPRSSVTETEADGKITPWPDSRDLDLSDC
Sequence of UniProt O88703 (whole entry, looked up): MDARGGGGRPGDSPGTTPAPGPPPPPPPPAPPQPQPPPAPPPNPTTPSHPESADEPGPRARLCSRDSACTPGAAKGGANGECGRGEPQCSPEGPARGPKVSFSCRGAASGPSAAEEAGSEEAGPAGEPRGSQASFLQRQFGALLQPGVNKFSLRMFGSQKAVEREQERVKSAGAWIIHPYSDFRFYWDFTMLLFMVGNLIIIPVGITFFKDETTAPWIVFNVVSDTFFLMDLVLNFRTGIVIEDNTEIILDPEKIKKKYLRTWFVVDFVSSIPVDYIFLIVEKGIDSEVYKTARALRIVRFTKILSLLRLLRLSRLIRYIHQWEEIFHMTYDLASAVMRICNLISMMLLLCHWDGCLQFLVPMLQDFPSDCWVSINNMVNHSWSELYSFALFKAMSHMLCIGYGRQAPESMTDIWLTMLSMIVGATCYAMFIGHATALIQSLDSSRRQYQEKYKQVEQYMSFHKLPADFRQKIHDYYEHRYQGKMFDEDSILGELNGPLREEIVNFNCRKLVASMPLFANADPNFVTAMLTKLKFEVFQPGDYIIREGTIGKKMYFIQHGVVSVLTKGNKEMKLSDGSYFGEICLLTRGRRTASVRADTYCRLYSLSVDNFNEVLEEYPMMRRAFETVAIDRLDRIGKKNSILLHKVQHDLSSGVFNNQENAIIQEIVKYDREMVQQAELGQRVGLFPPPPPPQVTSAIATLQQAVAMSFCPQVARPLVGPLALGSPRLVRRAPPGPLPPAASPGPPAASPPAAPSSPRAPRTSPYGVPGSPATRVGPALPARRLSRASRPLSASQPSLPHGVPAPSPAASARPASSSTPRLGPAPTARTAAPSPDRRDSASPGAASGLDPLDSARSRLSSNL

Substance	tested on	assay	test system	setting	scale	quantity	result
BP(=O)(OC[C@H]1O[C@@H](n2ccc(=O)[nH]c2=O)[C@H](O)[C@@H]1O)OP(=O)(O)OP(=O)(O)OP(=O)(O)OC[C@H]1O[C@@H](n2ccc(=O)[nH]c2=O)[C@H](O)[C@@H]1O (stereo partly drawn)	P2Y purinoceptor 4 (P2RY4, Homo sapiens, UniProt P51582)	calcium signal, agonist, fluorescence				EC50	16.8 µM
anthraquinone-neomycin	intramolecular DNA triplex hairpin	thiazole orange displacement, fluorescent intercalator displacement		pH 6.8, KCl 150 mM, together with: thiazole orange 700 nM		AC50	0.713 ± 0.123 µM
c1ccc(CCN2CCCCC2)cc1	dopamine receptors, bovine	binding	bovine striatum	together with: [3H]spiperone 0.3 nM		Ki	> 10 µM
CCCCN1C(=O)C(C=CC=CC=C2C(=O)N(c3ccc(S(=O)(=O)O)cc3)N=C2C)C(=O)N(CCCC)C1=O	SLC4A1 (Homo sapiens, UniProt P02730)	chloride exchange, 36Cl flux, item: outward-facing unloaded transporter		0 °C, Dixon plot, equilibrium binding		Ki	0.0039 ± 0.0008 µM
CN[C@@](C)(C[18F])C(=O)O	DU-145 tumour model		host not given, blood	2 h, tumour-bearing		tracer uptake	0.6 %ID/g
O=C(NCc1ccc(F)cc1)N1CCN2C(=O)OC(c3ccccc3)(c3ccccc3)C2C1 (stereo not drawn)	Neuropeptide S receptor (Mus musculus, UniProt Q8BZP8)	calcium mobilization, antagonist	HEK293 expressing mouse NPSR	24 min preincubation, 37 °C, together with: 30 nM PWT1-NPS		Kb	0.0102 µM
CCCCCCCCCCCCCCCC[N+](C)(C)C	TFEB (Homo sapiens, UniProt P19484)	nuclear translocation, activator, GFP-TFEB imaging	AML12	2 h	reference: Torin 1	AC50	6.62 µM
CC[N+](CC)(CC)CC(=O)Nc1c(C)cccc1C	sodium channel (rat brain), batrachotoxin-modified	open channel block, blocker, planar lipid bilayer, single channel		low-Kd period, 0 mV		Kd	1950 µM
COc1ccc(CC2=[N+](C)CCc3cc(OC)c(O)cc32)cc1O	Papaver glaucum DRR	enzyme activity, substrate, LC-MS product formation	Papaver glaucum	together with: NADPH 500 µM		substrate inhibition constant	109 ± 23.4 µM
CCCCCCCCCCCCCC(=O)O[C@@H]1[C@@H](C)[C@@]2(O)[C@@H](C=C(CO)C[C@]3(O)C(=O)C(C)=C[C@@H]23)[C@H]2C(C)(C)[C@]12OC(C)=O	PKCθ rat	kinase activity		1 µM, immunoprecipitated enzyme, together with: histone H1 substrate	reference: untreated	remaining activity	173 ± 30%
cGMP	Potassium/sodium hyperpolarization-activated cyclic nucleotide-gated channel 2, C-terminal region (Hcn2, Mus musculus, UniProt O88703)	binding, isothermal titration calorimetry		C-linker/CNBD tetramer, site 3		Kd	6.13 µM
CCCCC/C=C\C/C=C\C/C=C\C/C=C\CCCC(=O)OC(CO)CO	CNR2 (Homo sapiens, UniProt P34972, Q63R)	β-arrestin 2 recruitment, agonist, BRET	HEK293 coexpressing GRK1			EC50	1.66 µM

For quick reference, copied from above:
Substance	tested on	assay	test system	setting	scale	quantity	result
CCCCN1C(=O)C(C=CC=CC=C2C(=O)N(c3ccc(S(=O)(=O)O)cc3)N=C2C)C(=O)N(CCCC)C1=O	SLC4A1 (Homo sapiens, UniProt P02730)	chloride exchange, 36Cl flux, item: outward-facing unloaded transporter		0 °C, Dixon plot, equilibrium binding		Ki	0.0039 ± 0.0008 µM
